Measured values pooled from the literature.
Protocols differ between the studies behind these lines.
UniProt P78362, sequence (whole entry, looked up): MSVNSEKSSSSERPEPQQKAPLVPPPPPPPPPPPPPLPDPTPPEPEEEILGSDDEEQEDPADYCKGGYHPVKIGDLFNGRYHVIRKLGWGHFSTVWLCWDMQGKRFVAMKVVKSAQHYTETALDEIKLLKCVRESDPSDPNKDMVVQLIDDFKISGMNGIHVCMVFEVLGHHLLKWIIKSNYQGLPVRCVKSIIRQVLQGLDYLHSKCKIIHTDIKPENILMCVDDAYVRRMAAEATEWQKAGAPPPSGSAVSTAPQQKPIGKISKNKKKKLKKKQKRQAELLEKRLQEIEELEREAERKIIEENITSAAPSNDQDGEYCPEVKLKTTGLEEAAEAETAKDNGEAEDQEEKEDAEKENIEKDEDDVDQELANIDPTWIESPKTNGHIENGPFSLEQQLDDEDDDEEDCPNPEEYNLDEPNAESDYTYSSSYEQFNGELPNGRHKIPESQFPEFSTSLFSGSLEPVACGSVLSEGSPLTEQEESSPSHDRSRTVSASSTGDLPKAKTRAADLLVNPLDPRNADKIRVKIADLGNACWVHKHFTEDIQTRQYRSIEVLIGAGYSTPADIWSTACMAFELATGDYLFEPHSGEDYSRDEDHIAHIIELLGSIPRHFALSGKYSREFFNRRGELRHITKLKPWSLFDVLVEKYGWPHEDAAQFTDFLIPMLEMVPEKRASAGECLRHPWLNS

Oc1c(Br)cc(Br)cc1-c1[nH]c(Br)c(Br)c1Br gave an MIC of 0.25 µM (Staphylococcus epidermidis; microbial growth; ATCC14990).
COC(=O)c1cc(-c2cccc(NC(=O)Nc3cccc(C(F)(F)F)c3)c2)on1 has an MIC of > 64 µg/mL (Mycobacteroides abscessus; microbial growth, broth dilution; ATCC19977; 48 h).
C#CC[N+]1(CC)CCc2c(sc(NC(=O)c3c(F)c(F)c(F)c(F)c3F)c2C(=O)OCC)C1 (centres unmarked) has an MIC of 1.8 µM (Mycolicibacterium smegmatis; microbial growth; MC2155; 72 h).
The MIC of COC(=O)c1cc(-c2cccc(NC(=S)Nc3ccccc3)c2)on1 is reported as > 64 µg/mL (Mycobacteroides abscessus; microbial growth, broth dilution; ATCC19977; 48 h).
With O=c1ccc2nc3ccc(OCc4ccc([N+](=O)[O-])o4)cc3oc-2c1 the MIC was > 32 µg/mL (Escherichia coli; microbial growth; 24 h).
COC(=O)c1cc(-c2cccc(NC(=O)Nc3ccc(OC)cc3)c2)on1 gave an MIC of > 64 µg/mL (Mycobacteroides abscessus; microbial growth, broth dilution; ATCC19977; 48 h).
The MIC of COc1ccc(-c2oc3ccc(O)c(CN4CCCCC4)c3c2C(=O)NCc2cn(Cc3ccccc3)nn2)cc1 is reported as 39.2 µM (Mycolicibacterium smegmatis; microbial growth; MC2155; 72 h).
With Oc1c(Cl)cc(Cl)cc1-c1[nH]c(Cl)c(Cl)c1Cl the MIC was 0.13 µM (Staphylococcus epidermidis; microbial growth; ATCC14990).
N#Cc1ccc(/C=C/c2nc3ccccc3c(=O)n2-c2cccc(F)c2)cc1 has an MIC of > 128 µg/mL (Enterococcus faecium; microbial growth, broth dilution; NCTC7171).
With [2H]c1c([2H])c([C@]2([2H])CCCN2C(=O)C(C)(C)Oc2ccc3cn[nH]c3c2)c([2H])c([2H])c1C([2H])([2H])[2H] the remaining binding was 99% (SRPK2 (Homo sapiens, UniProt P78362); binding, competition with immobilised ligand; 1 µM).
COC(=O)c1cc(-c2cccc(NC(=O)Nc3ccccc3C)c2)on1 has an MIC of > 64 µg/mL (Mycobacteroides abscessus; microbial growth, broth dilution; ATCC19977; 48 h).
With C[C@@H](O)[C@H]1C(=O)N2C(C(=O)O)=C(S[C@@H]3CN[C@H](C(=O)N(C)C)C3)[C@H](C)[C@H]12 the MIC was > 8 µg/mL (Acinetobacter baumannii; microbial growth; NCTC13304; drug-resistant strain).
O=c1c2ccccc2nc(/C=C/c2ccncc2)n1-c1cccc(O)c1 gave an MIC of 128 µg/mL (Enterococcus faecium; microbial growth, broth dilution; NCTC7171).
The MIC of CCOC(=O)c1c(-c2ccc(OC)cc2)oc2ccc(OCc3cn(C[C@H]4O[C@H](O[C@H]5O[C@H](CO)[C@@H](O)[C@H](O)[C@H]5O)[C@H](O)[C@@H](O)[C@@H]4O)nn3)c(CN3CCCCC3)c12 is reported as 102 µM (Mycolicibacterium smegmatis; microbial growth; MC2155; 72 h).
O=c1ccc2nc3ccc(O)cc3oc-2c1 has an MIC of > 32 µg/mL (Enterobacter cloacae; microbial growth; 24 h).
The MIC of COC(=O)c1cc(-c2cccc(NC(=S)NC3CCCCC3)c2)on1 is reported as > 64 µg/mL (Mycobacteroides abscessus; microbial growth, broth dilution; ATCC19977; 48 h).
With O=c1c2ccccc2nc(/C=C/C2CCCCC2)n1-c1cccc(O)c1 the MIC was > 128 µg/mL (Enterococcus faecium; microbial growth, broth dilution; NCTC7171).
